Measurements gathered from unrelated publications.
Compare with care: the assays were run in different laboratories.
Organism: Candida albicans

C[C@H](NC(=O)[C@H](CCCNC(=N)N)NC(=O)[C@H](Cc1c[nH]c2ccccc12)NC(=O)[C@H](CCCNC(=N)N)NC(=O)[C@H](Cc1c[nH]c2ccccc12)NC(=O)[C@H](Cc1c[nH]c2ccccc12)NC(=O)[C@H](Cc1c[nH]c2ccccc12)NC(=O)[C@H](CCCNC(=N)N)NC(=O)[C@H](Cc1c[nH]c2ccccc12)NC(=O)[C@H](CCCNC(=N)N)NC(=O)CN)C(N)=O — MIC (broth microdilution; 17546, RPMI 1640-MOPS; 48 h, 30 °C): 8 µM
CC[C@H](C)[C@H](NC(=O)CN)C(=O)NCC(=O)N[C@@H](C)C(=O)N[C@H](C(=O)N[C@@H](CC(C)C)C(=O)N[C@@H](CCCCN)C(=O)N[C@H](C(=O)N[C@@H](CC(C)C)C(=O)N[C@H](C(=O)N[C@H](C(=O)NCC(=O)N[C@@H](CC(C)C)C(=O)N1CCC[C@H]1C(=O)N[C@@H](C)C(=O)N[C@@H](CC(C)C)C(=O)N[C@H](C(=O)N[C@@H](CO)C(=O)N[C@@H](Cc1c[nH]c2ccccc12)C(=O)N[C@H](C(=O)N[C@@H](CCCCN)C(=O)N[C@@H](CCCNC(=N)N)C(=O)N[C@@H](CCCCN)C(=O)N[C@@H](CCCNC(=N)N)C(=O)N[C@@H](CCC(N)=O)C(=O)N[C@@H](CCC(N)=O)C(N)=O)[C@@H](C)CC)[C@@H](C)CC)[C@@H](C)O)[C@@H](C)O)C(C)C)C(C)C — MIC (broth microdilution; CGMCC 2.209, RPMI-1640; 48 h, 30 °C): 4 µM
CC[C@H](C)[C@H](NC(=O)CN)C(=O)NCC(=O)N[C@@H](C)C(=O)N[C@H](C(=O)N[C@@H](CC(C)C)C(=O)N[C@@H](CCCCN)C(=O)N[C@H](C(=O)N[C@@H](CC(C)C)C(=O)N[C@H](C(=O)N[C@H](C(=O)NCC(=O)N[C@@H](CC(C)C)C(=O)N1CCC[C@H]1C(=O)N[C@@H](C)C(=O)N[C@@H](CC(C)C)C(=O)N[C@H](C(=O)N[C@@H](CO)C(=O)N[C@@H](Cc1c[nH]c2ccccc12)C(=O)N[C@H](C(=O)N[C@@H](CCCCN)C(=O)N[C@@H](CCCNC(=N)N)C(=O)N[C@@H](CCCCN)C(=O)N[C@@H](CCCNC(=N)N)C(=O)N[C@@H](CCC(N)=O)C(=O)N[C@@H](CCC(N)=O)C(N)=O)[C@@H](C)CC)[C@@H](C)CC)[C@@H](C)O)[C@@H](C)O)C(C)C)C(C)C — MIC (broth microdilution; SP3903, RPMI 1640-MOPS; 48 h, 30 °C): 2 µM
O=[N+]([O-])[O-].[Ag+] — MIC (broth microdilution, turbidity; ATCC 10231; 24 h, as nitrate salt): 1.5 mg/L
OC(Cn1cncn1)(Cn1cncn1)c1ccc(F)cc1F — MIC (2.209; after 30 generations serial passaging): 512 µM
CC[C@H](C)[C@H](NC(=O)[C@H](CCCNC(=N)N)NC(=O)[C@H](Cc1c[nH]c2ccccc12)NC(=O)[C@H](CCCNC(=N)N)NC(=O)[C@H](Cc1c[nH]c2ccccc12)NC(=O)[C@H](Cc1c[nH]c2ccccc12)NC(=O)[C@H](Cc1c[nH]c2ccccc12)NC(=O)[C@H](CCCNC(=N)N)NC(=O)[C@H](Cc1c[nH]c2ccccc12)NC(=O)[C@@H](N)CCCNC(=N)N)C(N)=O — MIC (broth microdilution; CGMCC 2.209, RPMI 1640-MOPS; 48 h, 30 °C, together with: NaCl 150 mM): 32 µM
CC[C@H](C)[C@H](NC(=O)[C@H](CCCNC(=N)N)NC(=O)[C@@H](NC(=O)[C@H](C)NC(=O)[C@@H](N)CCCNC(=N)N)C(C)C)C(=O)N[C@@H](Cc1c[nH]c2ccccc12)C(=O)N[C@@H](Cc1c[nH]c2ccccc12)C(N)=O — MIC: 32 mg/L
CC[C@H](C)[C@H](NC(=O)CN)C(=O)NCC(=O)N[C@@H](C)C(=O)N[C@H](C(=O)N[C@@H](CC(C)C)C(=O)N[C@@H](CCCCN)C(=O)N[C@H](C(=O)N[C@@H](CC(C)C)C(=O)N[C@H](C(=O)N[C@H](C(=O)NCC(=O)N[C@@H](CC(C)C)C(=O)N1CCC[C@H]1C(=O)N[C@@H](C)C(=O)N[C@@H](CC(C)C)C(=O)N[C@H](C(=O)N[C@@H](CO)C(=O)N[C@@H](Cc1c[nH]c2ccccc12)C(=O)N[C@H](C(=O)N[C@@H](CCCCN)C(=O)N[C@@H](CCCNC(=N)N)C(=O)N[C@@H](CCCCN)C(=O)N[C@@H](CCCNC(=N)N)C(=O)N[C@@H](CCC(N)=O)C(=O)N[C@@H](CCC(N)=O)C(N)=O)[C@@H](C)CC)[C@@H](C)CC)[C@@H](C)O)[C@@H](C)O)C(C)C)C(C)C — MIC (CGMCC 2.209, RPMI 1640 MOPS-buffered; 48 h, 37 °C, tested up to 128 µM): 4 µM
CC[C@H](C)[C@H](NC(=O)CN)C(=O)N[C@@H](C)C(=O)N[C@@H](CC(=O)O)C(=O)N[C@@H](C)C(=O)N[C@H](C(=O)N[C@@H](CCCCN)C(=O)N[C@@H](CCCCN)C(=O)N[C@H](C(=O)N[C@@H](C)C(=O)N[C@@H](CCCCN)C(=O)N[C@@H](C)C(=O)N[C@@H](CC(C)C)C(=O)NCC(N)=O)[C@@H](C)CC)[C@@H](C)CC — MIC (ATCC 90029, RPMI MOPS; 24 h, pH 7.0, 33 °C): 64 mg/L
C#Cc1ccc(C=NNC(=O)c2ccc(Br)cc2Br)c(O)c1 — MIC (A39; 48 h): 1 mg/L
